Assay results gathered from unrelated publications.
Parts stem from different laboratories: compare values within a part only. Positions count from the first letter of the parent shown.

Set 1
Target: POU domain, class 5, transcription factor 1, POU domain (Pou5f1, Mus musculus, UniProt P20263, residues 131-289)
UniProt P20263, sequence (131-289, looked up): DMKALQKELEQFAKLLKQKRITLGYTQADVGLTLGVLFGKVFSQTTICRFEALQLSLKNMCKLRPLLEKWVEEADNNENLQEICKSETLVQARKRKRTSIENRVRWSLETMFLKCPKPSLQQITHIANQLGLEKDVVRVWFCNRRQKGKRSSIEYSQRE
Technique: Spec-seq
Form: double-stranded DNA, one strand shown
Medium: in vitro
Tested at: not given
Setting: whole probe, mean of replicates
Reference: not given
Direction: lower = stronger binding
Quantity: relative binding energy
Constant ends, left off below: GAGTCGTCTCGTCAGCAC … CCGTAGAGCACTCAGGTC
TTACTAAT: 0.197 ln ratio
ATGCCCCA: 0.661 ln ratio
ATTATTAT: -0.097 ln ratio
ATGCCTGT: 0.574 ln ratio
ATGCAGCC: 0.179 ln ratio
ATGGACAT: 0.438 ln ratio
ATAACCAT: -0.214 ln ratio
ATGGTAAT: -1.39 ln ratio
ATTTGTAT: -0.319 ln ratio
ATGCCTCT: 0.758 ln ratio
ATGCCACG: 0.562 ln ratio
ATGCATCT: -0.551 ln ratio
ACGATAAT: 0.544 ln ratio
TCCCTAAT: 0.788 ln ratio
ATTAAGAT: 0.102 ln ratio
TTGATAAT: 0.156 ln ratio

Set 2
Target: RING finger protein unkempt homolog, zinc fingers 1-6, GST-SBP tag (UNK, Homo sapiens, UniProt Q9C0B0, residues 30-357)
UniProt Q9C0B0, sequence (30-357, looked up): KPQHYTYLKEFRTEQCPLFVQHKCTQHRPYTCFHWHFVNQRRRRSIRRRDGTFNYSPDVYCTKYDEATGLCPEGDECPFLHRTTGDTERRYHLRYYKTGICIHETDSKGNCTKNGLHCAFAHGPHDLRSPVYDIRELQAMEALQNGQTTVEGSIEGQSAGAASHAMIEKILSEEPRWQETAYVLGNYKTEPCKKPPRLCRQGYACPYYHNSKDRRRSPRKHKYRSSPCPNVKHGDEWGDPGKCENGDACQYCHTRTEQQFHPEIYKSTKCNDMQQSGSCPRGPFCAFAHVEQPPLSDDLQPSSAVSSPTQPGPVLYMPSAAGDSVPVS
Technique: RNA Bind-n-Seq
Form: RNA
Medium: in vitro
Tested at: not given
Setting: RNA with constant flanks, human-mouse chimeric sites, ends assumed
Reference: input RNA pool
Direction: higher = stronger binding
Quantity: bound/input enrichment
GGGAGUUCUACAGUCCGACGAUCAGAGAAAUGAGAAAGAAUCUCACACAAGAAGAGAUGCAAAGAAUGUCUACUAGAGUCCUUUUGGCGACUCUUUCCAUUCCUAUUACUCCUGAGCGAACUGAUAUUGCUCGACUUCUGGAUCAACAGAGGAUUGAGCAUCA: 0.254 ratio
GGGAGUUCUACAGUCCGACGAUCUUGAAAACUGAUUCAAGUAAGUUUGAGUAUCACAAUGUUAGCUUUCUAAUUCCACACAAGUACUUGGUUUUUACAGUUUAUAAUCUGACAUCACCCCAGCGCCAUUUGUAAAGAGCAACUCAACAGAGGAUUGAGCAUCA: 0.56 ratio
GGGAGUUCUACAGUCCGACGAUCCACAGAGGCACCACCCCCCCCUCCUCCUUUCCACACCUGCAAACCCUUUUACUUGGGCUGAAUAUUUAGUGUAAUUACAUCUCAGCUUUGAGGGCUCCUGUGGCAAAUUCCCGGAUUAAACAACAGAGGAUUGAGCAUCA: 0.97 ratio
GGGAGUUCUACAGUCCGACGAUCAUGGAACAUUUCGAUGCAUCACUUAGUACCUAUUUCAAGGCCUUCCUGGGCCCCCGAGAUACAAGAGUCAAAGGAUGGUUCCUCCUGGACAAUUACAUCCCUACGUUUAUCUGCUCUGUUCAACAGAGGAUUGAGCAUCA: 0.29 ratio
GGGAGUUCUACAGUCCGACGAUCAAAGUGAUAACCAUGUUUGUCCAACGACAGGUAUUUUCGGAGAGCAAAGAUGAGAUUGCGUUAGUCCUGUUUGGUACAGAUGGCACUGAUAAUGCCCUUGCUGGCAAGGACCAGUAUCAGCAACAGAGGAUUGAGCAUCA: 0.148 ratio
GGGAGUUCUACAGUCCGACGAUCUUUCUACUGCAGCAGACGAUGCUAAGAAUUAAGGAUCCUAAGAAGUCCCUGGAUUUUUAUACGAGGGUUCUUGGACUGACCCUCCUGCAGAAGCUUGAUUUUCCCAUUAUGAAGUUCUCGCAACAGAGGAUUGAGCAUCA: 0.238 ratio
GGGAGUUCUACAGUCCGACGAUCUAAAUUAGGGCUGCCGUUUUCUGUUUCUCCCUGGGCUGCGGAAAGCCAGAAGAUUUUAUCUAGUUUGUACAAGGCUGCUGGUGUUCCCUCCCUCCCGCCACGAGGGUGUUUUUGGCUGCACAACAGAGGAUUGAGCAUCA: 1 ratio
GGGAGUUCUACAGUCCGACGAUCGCCACCAGAUCCCAGAAACAUGACCCUUGCUGCCUACAAAGAGAAGAUGAAGGAACUCCCGCUGGUGUCCUUGUUCUGCUCCUGCUUCCUGGCCGAUCCCCUGAAUAAAUCAUCCUACAACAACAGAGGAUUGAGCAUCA: 0.395 ratio

Set 3
Target: TEF, bZIP domain (human)
Technique: DHFR protein complementation
Medium: yeast
Setting: single substitutions, most at no-binding floor
Reference: wild-type JUN-FOS pair
Direction: higher = stronger binding
Quantity: binding fitness
Parent: JUN, bZIP domain (human); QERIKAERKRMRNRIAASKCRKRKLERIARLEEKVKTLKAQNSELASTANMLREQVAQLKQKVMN; partner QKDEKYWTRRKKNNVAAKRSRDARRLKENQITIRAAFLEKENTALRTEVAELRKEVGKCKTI
L45A: -1.59 natural log
L31M: -1.51 natural log
A57H: -1.5 natural log
T37N: -1.17 natural log
K39A: -1.41 natural log
K36G: -1.49 natural log
R30A: -1.25 natural log
T37W: -1.51 natural log
V56F: -1.5 natural log
E32Q: -1.36 natural log
A29R: -1.49 natural log
E33G: -1.37 natural log
M51C: -1.3 natural log
Q41E: -1.37 natural log
L31S: -1.37 natural log
E33S: -1.53 natural log

Set 4
Target: Sal-like protein 4, full length isoform A (SALL4, Homo sapiens, UniProt Q9UJQ4, residues 1-1053)
UniProt Q9UJQ4, sequence (whole entry, looked up): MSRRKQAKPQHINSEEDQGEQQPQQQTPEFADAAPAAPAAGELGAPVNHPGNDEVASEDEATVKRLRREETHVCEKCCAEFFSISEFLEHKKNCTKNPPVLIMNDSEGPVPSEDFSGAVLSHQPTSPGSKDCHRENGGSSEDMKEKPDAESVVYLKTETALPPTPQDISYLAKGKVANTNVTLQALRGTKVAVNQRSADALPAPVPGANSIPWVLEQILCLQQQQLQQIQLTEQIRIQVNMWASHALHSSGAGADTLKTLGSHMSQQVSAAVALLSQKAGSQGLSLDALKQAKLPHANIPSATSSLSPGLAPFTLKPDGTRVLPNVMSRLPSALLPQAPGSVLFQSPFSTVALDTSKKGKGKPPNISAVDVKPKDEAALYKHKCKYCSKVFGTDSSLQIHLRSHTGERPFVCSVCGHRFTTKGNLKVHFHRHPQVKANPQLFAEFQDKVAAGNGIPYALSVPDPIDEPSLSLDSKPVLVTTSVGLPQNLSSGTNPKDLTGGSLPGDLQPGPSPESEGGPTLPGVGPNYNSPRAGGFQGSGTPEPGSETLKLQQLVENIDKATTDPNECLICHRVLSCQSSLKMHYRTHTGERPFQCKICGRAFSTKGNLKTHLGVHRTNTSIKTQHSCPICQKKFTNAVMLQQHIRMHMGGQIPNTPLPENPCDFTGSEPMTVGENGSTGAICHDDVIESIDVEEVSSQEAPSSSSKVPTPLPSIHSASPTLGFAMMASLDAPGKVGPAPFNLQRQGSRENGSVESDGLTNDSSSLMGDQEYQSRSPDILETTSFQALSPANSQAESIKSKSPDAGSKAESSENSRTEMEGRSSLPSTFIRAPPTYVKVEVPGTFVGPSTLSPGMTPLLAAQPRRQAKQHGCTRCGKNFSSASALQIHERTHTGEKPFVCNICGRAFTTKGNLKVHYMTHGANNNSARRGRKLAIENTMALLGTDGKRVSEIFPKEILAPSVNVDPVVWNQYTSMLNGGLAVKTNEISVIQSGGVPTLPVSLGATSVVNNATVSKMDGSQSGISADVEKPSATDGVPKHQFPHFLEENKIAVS
Technique: universal PBM
Form: double-stranded DNA, one strand shown
Medium: in vitro
Tested at: 600 nM
Setting: 8-mer, flanks averaged, mean of replicates
Direction: higher = stronger binding
Quantity: E-score
CAATTACC: 0.093
CTTCTAAC: 0.0289
ACCTAGTC: -0.0848
CGGACGTA: -0.116
AATTCCAC: 0.181
GCACTCAC: -0.218
GAGAGTAA: 0.112
CGTCCACA: -0.149
CCGGCTAC: -0.275
CCAGTATC: -0.116
ACCAGCCC: -0.255
GCGCTCCA: -0.339
AAGGGTAT: 0.17
GCACACAC: -0.181
AAGCCTTG: -0.0949
CGACTAAC: -0.0959
AAGATTTC: 0.0862
AGTAAACT: 0.26
AACGAAAG: 0.0898
AGAGGGTA: -0.064
ATAACGTC: 0.296
AATAAGCT: 0.254
GCTGTCAC: -0.0932
AGAGCCTG: -0.166
CATATTGC: 0.215

Set 5
Target: CCNE2, cyclin fold, Cln2 fusion (human)
Technique: yeast growth competition, sequencing
Medium: yeast
Setting: strong parent motif
Reference: not given
Direction: higher = stronger binding
Quantity: normalised enrichment score
Parent: ANKRD17 docking peptide (human); PSVRRQLFVTVVK; partner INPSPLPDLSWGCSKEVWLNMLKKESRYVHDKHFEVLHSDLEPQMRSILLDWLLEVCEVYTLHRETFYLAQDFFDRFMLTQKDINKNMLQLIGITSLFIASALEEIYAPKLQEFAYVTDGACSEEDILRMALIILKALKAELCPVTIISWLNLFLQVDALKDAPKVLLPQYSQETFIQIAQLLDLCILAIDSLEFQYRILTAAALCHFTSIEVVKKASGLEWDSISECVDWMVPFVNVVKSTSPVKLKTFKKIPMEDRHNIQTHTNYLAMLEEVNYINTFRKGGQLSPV
PSVRRQLFVTVAK [V12A]: 3.98
PSVRRQLLVTVVK [F8L]: 0.744
PSVRRQLFVTAVK [V11A]: 4.61
PAVRRQLFVTVVK [S2A]: 3.67
ASVRRQLFVTVVK [P1A]: 3.63
PSVRRQAFVTVVK [L7A]: 1.55
PSVRRQLFATVVK [V9A]: 3.41

For quick reference, copied from above (set 4):
ACCTAGTC: -0.0848
CGGACGTA: -0.116
AATTCCAC: 0.181
GCACTCAC: -0.218
GAGAGTAA: 0.112
CGTCCACA: -0.149
CCGGCTAC: -0.275
